Literature values as cited in several papers.
Each line is one published result; not all experiments were run side by side. Numbers after ± are the reported error.

Structure (SMILES) = CCC(=O)C[C@@H](O)C[C@@H](C)C[C@H](NC(=O)[C@@H]1C[C@H](C)CN1C(=O)/C=C/[C@@H](C)CC)C(=O)N[C@H](C(=O)NC(C)(C)C(=O)N[C@@H](CC(C)C)C(=O)N[C@@H](CC(C)C)C(=O)NC(C)(C)C(=O)NC(C)(C)C(=O)NCCC(=O)N[C@@H](C)CN(C)C)[C@H](O)C(C)C; assay = oxidative phosphorylation; test system = rat liver mitochondria; measurement = uncoupling concentration; result = > 240 nM
Structure (SMILES) = CC1(C)NC(=O)N(c2ccc(F)c(C(F)(F)F)c2)C1=O; tested on = Schistosoma mansoni; test system = juvenile, mouse; measurement = ED50; result = 140 mg/kg
Structure (SMILES) = O=C(c1cc(Cc2n[nH]c(=O)c3ccccc23)ccc1F)N1CCN(C(=O)C2CC2)CC1; test system = patient, ovarian cancer, BRCA wild-type; conditions = dose not given, capsule monotherapy; measurement = response rate; result = 24%
Structure (SMILES) = O=S(=O)([O-])C(F)(F)C(F)(F)C(F)(F)C(F)(F)C(F)(F)C(F)(F)C(F)(F)C(F)(F)F.[K+]; tested on = CYP1A2; assay = inhibitor; conditions = Tox21 screening; measurement = IC50; result = inactive
Structure (SMILES) = CONC(=O)[C@H]1[C@@H](O)[C@@]2(O)c3c(OC)cc(OC)cc3O[C@@]2(c2ccc(OC)cc2)[C@@H]1c1ccccc1; assay = mRNA translation; test system = Krebs-2 cell extracts; measurement = EC50; result = 272 nM
Structure (SMILES) = N/C(CC(O)c1cc2c(F)cc(F)cc2c2cc(C(F)(F)F)ccc12)=N\c1ccc(F)cc1 (stereo not shown); tested on = Plasmodium falciparum; assay = cell growth; test system = Dd2 PfATP4 G358S mutant; measurement = IC50; result = 11 nM
Structure (SMILES) = O=c1oc2cc(O)ccc2c2oc3cc(O)ccc3c12; assay = DMPD radical scavenging; measurement = IC50; result = 12.8 µg/mL
Structure (SMILES) = COC(=O)[C@@H]1C[C@H](OC(C)=O)C(=O)[C@H]2[C@@]1(C)CC[C@H]1C(=O)O[C@H](c3ccoc3)C[C@]21C; tested on = kappa opioid receptor Q213A; measurement = Ki; result = 40 ± 12 nM
Structure (SMILES) = CC(=O)c1c(O)c(C)c(O)c2c1OC1=CC(=O)C(C(C)=O)C(=O)C12C (stereo not shown); assay = DMPD radical scavenging; measurement = IC50; result = 33 µg/mL
Structure (SMILES) = CC(=O)[C@H]1CC[C@H]2[C@@H]3CC[C@H]4C[C@@H](O)CC[C@]4(C)[C@H]3CC[C@]12C; assay = protection from pentylenetetrazol seizures; test system = mouse NIH Swiss male; conditions = intraperitoneal, 15 min pretreatment; measurement = ED50; result = > 100 mg/kg
Structure (SMILES) = O=C(/C=C/c1ccc(O)c(O)c1)OCCc1ccccc1; assay = DMPD radical scavenging; measurement = IC50; result = 26.7 µg/mL
Structure (SMILES) = CCCCCOc1ccc(-c2ccc(-c3ccc(C(=O)N[C@H]4C[C@@H](O)[C@@H](O)NC(=O)[C@@H]5[C@@H](O)[C@@H](C)CN5C(=O)[C@H]([C@@H](C)O)NC(=O)[C@H]([C@H](O)[C@@H](O)c5ccc(O)cc5)NC(=O)[C@@H]5C[C@@H](O)CN5C(=O)[C@H]([C@@H](C)O)NC4=O)cc3)cc2)cc1; test system = human, invasive aspergillosis patients; conditions = dose not given, typical value; measurement = peripheral volume of distribution; result = 34.1 L
Structure (SMILES) = O=C1c2c(O)cc(O)cc2OC(c2ccc(O)c(O)c2)C1O (stereo not shown); assay = DMPD radical scavenging; measurement = IC50; result = 173 µg/mL
Structure (SMILES) = O=C(O)C(F)(F)C(F)(F)C(F)(F)C(F)(F)C(F)(F)C(F)(F)C(F)(F)F; tested on = CYP3A4; assay = inhibitor; conditions = Tox21 screening; measurement = IC50; result = inactive
Structure (SMILES) = Cc1c(C(=O)Nc2ccc(N3C[C@@H](C)O[C@@H](C)C3)nc2)cccc1-c1ccc(OC(F)(F)F)cc1; test system = mouse; conditions = oral, 40 mg/kg/day, day 10; scale = baseline: baseline; measurement = hyaluronan level at nadir; result = 42.7%
Structure (SMILES) = O=S(=O)(CC1CS1)c1ccc(Oc2ccccc2)cc1 (racemic); test system = testosterone-induced animal model; conditions = dose not given; measurement = activity in neurogenesis model; result = active
Structure (SMILES) = COc1ccc([C@@]23Oc4cc(OC)cc(OC)c4[C@@]24NC(C)=N[C@@]4(O)[C@H](C(=O)N(C)OC)[C@H]3c2ccccc2)cc1; assay = mRNA translation; test system = Krebs-2 cell extracts; measurement = EC50; result = 39 nM
Structure (SMILES) = O=c1[nH]cc(F)c(=O)[nH]1; test system = metastatic pancreatic cancer patients; conditions = dose not given; measurement = median overall survival; result = 4.41 months
Structure (SMILES) = NCCCS(=O)(=O)O; assay = measured: insoluble amyloid plaques; test system = transgenic AD mouse model; conditions = oral, dose not given, repeated dosing; measurement = reduction; result = ~30%
Structure (SMILES) = Nc1ccn([C@@H]2O[C@H](CO)[C@@H](O)C2(F)F)c(=O)n1; test system = pancreatic cancer patients; conditions = dose not given; measurement = median overall survival; result = 3.82 months
Structure (SMILES) = Cn1cc2cc(C(F)(F)c3nnc4ccc(-c5cnn(C6CC6)c5)nn34)c(F)cc2n1; test system = human, NSCLC patients; conditions = dose not given, phase II; measurement = disease control rate; result = 96.2%
Structure (SMILES) = NC(=O)CC[C@H](NC(=O)[C@@H]1CC[C@@H]2CCN(C(=O)CCCCCC#Cc3cccc4c3CN(C3CCC(=O)NC3=O)C4=O)C[C@H](NC(=O)c3cc4cc(C(F)(F)P(=O)(O)O)ccc4[nH]3)C(=O)N21)C(=O)NC(c1ccccc1)c1ccccc1 (stereo partly shown); test system = mouse, MOLM16 xenograft; conditions = weekly dosing; measurement = dose for complete regression; result = 100 mg/kg

For quick reference, copied from above:
Structure (SMILES) = O=C1c2c(O)cc(O)cc2OC(c2ccc(O)c(O)c2)C1O (stereo not shown); assay = DMPD radical scavenging; measurement = IC50; result = 173 µg/mL
Structure (SMILES) = O=C(O)C(F)(F)C(F)(F)C(F)(F)C(F)(F)C(F)(F)C(F)(F)C(F)(F)F; tested on = CYP3A4; assay = inhibitor; conditions = Tox21 screening; measurement = IC50; result = inactive
